# Results gathered from unrelated publications.
# Lines come from different studies, so protocols differ. ± gives the spread as reported.
SMILES,test,system,conditions,scale,measurement,value
CCN1/C(=C/C(C)=O)Sc2ccc(F)cc21,,cynomolgus monkey,"oral, 30 mg/kg, 2 h post-dose",reference: pre-dose,systolic blood pressure change,97.8 ± 3.1%
NC1(C(=O)N[C@@H](CCO)c2ccc(Cl)cc2)CCN(c2nc[nH]c3nccc2-3)CC1,,metastatic CRPC patients,"400 mg b.i.d., grade 3 to 4, treatment-related, with: enzalutamide 160 mg daily",,incidence of decreased appetite,0%
CCO[C@H]1CCN(Cc2c(OC)cc(C)c3[nH]ccc23)[C@H](c2ccc(C(=O)O)cc2)C1,,"healthy volunteers, plasma","oral, 200 mg single dose, geometric mean",,total half-life,19.6 h
CSc1ccccc1C(=O)NCCn1cc(C(=O)NCc2cccc(C)n2)c(=O)c2cc3c(cc21)OC(F)(F)O3,,"Sprague-Dawley rat, male, plasma","intravenous, 20 mg/kg of parent drug",,MRT(0-inf),1.58 h
CN[C@@H](C)C(=O)N[C@H]1CN(C(=O)CC(C)C)CC[C@H]2CC[C@@H](C(=O)NC(c3ccccc3)c3ccccc3)N2C1=O,unchanged drug recovered,"SCID mice, MDA-MB-231 xenograft, urine",oral,,renal clearance,0.128 mL/min
Cn1cc(Nc2nc(N)nc(-c3cccc(-n4ccc5cc(C6CC6)cc(F)c5c4=O)c3CO)n2)cn1,,healthy subjects,"oral, 300 mg tablet, fed high-fat breakfast",,drug-related nausea subjects,0%
CN1CCC[C@H](CN2c3ccccc3Sc3ccccc32)C1.Cl,,"ICR mouse female fasted, heart","oral, 16 mg/kg",,AUC(0-t),2210 ng·h/mL
C[C@H]1C[C@@H](N2C(=N)N[C@](C)(c3cccc(NC(=O)c4cccc(C#N)c4)c3Cl)CC2=O)CCO1,,,289 to 302 nm,,average molar extinction coefficient,> 1000 L/mol/cm
Cc1ccc(Sc2ccccc2N2CCNCC2)c(C)c1,refers to: ALT increased,healthy adult men,"oral, 5 mg daily, 12 days",,participants with TEAE,16.7%
O=C1NCCc2nc(OCc3cccc(F)c3)ccc21,refers to: skin color,Sprague-Dawley rat male,"oral, 100 mg/kg, 4 h",direction not given,Irwin test score,0
CCOc1c([C@H](C)n2nc(C)c3c(N)ncnc32)cc(Cl)c(F)c1[C@@H]1CNC(=O)C1,,"human patients, all cohorts, plasma","oral, 20 mg, day 15, monotherapy, geometric mean",,Cmin,214 nM
CC=CC1CCC(C2CCC(CCC)CC2)CC1 (stereo not drawn),,"rat, placenta","5000 ng/mL in perfusate, high dose, mixture of 21 LCMs",,placental accumulation,353 ± 585 ng/g
NS(=O)(=O)c1cc(C(=O)O)c(NCc2ccco2)cc1Cl,refers to: gastrointestinal disorders,healthy men,"oral, 8 days, treatment-emergent, crossover trial",,subjects with adverse event,0%
O=C(Nc1cnccc1Cl)N1CCN(Cc2ccc3c(c2)OC(F)(F)O3)CC1,refers to: Fatigue,human healthy young women,"100 mg, multiple dose",,adverse event incidence,33.3%
C=CCN1CC(=O)N2[C@@H](Cc3ccc(O)cc3F)C(=O)N(Cc3cccc(N4CC(N5CCN(CC)CC5)C4)n3)C[C@@H]2N1C(=O)NCc1ccccc1,refers to: Vomiting,advanced solid tumour patients,"oral, 120 mg twice daily, expansion part, any grade",,treatment-related adverse events,90%
C[C@@H](Oc1ccc(S(C)(=O)=O)cc1C(=O)N1C[C@@H]2C[C@]2(c2cc(C(F)(F)F)on2)C1)C(F)(F)F,,"healthy young humans, plasma","oral, 75 mg once daily","reference: AUCtau,ss over AUC(0-inf)",linearity index,0.899
C[C@H]1CN(C(=O)CC#N)[C@]12CCN(c1ncnc3[nH]ccc13)C2,,"human, male",,,absolute bioavailability,75 to 100%
CC(C)=CCC/C(C)=C/C(=O)O.Cc1cc(/C=C/C#N)cc(C)c1Nc1ccnc(Nc2ccc(C#N)cc2)n1,,water,,,equilibrium solubility,5.24 ± 0.12 µg/mL
CC(=O)N(C)[C@H]1CCN(C(=O)c2cnc3c(c2)C[C@](C)(c2ccc(F)cc2)N3)C1,,"male humans, plasma","oral, 60 mg once daily, geometric mean",,"linearity index (AUCt,ss/AUC0-inf)",1.01
Cc1cc(-c2cn[nH]c2-c2cccc(OCc3cccc(C#N)c3)c2)cc(C)n1,,C57BL/6 mouse,"intraperitoneal, 200 mg/kg single dose",,tolerability,not toxic
Cc1cc(C)c(CNC(=O)c2cc(Cl)c3c(c2C)O[C@@](C)([C@H]2CC[C@H](N(C)C)CC2)O3)c(=O)[nH]1,,"human male, feces","oral, 200 mg",reference: dose,excretion as parent,64.9%
Cc1ccc([C@@H]2O[C@H](CO)[C@@H](O)[C@H](O)[C@H]2O)cc1Cc1ccc(-c2ccc(F)cc2)s1,,Japanese type 2 diabetes patients,"400 mg, day 4, 24 h urine collection",reference: baseline,urinary chloride excretion change,-21.8 mEq
O=c1[nH]c(=O)n([C@@H]2O[C@H](CO)[C@@H](O)[C@@H]2F)cc1CCCC[18F],,"nude mice, RG2 tumour, skin","intravenous, dose not given, 2 h",,biodistribution,0.13 ± 0.03 %ID/g
C[C@H](CCC(=O)O)[C@H]1CC[C@H]2[C@@H]3[C@H](O)C[C@@H]4C[C@H](O)CC[C@]4(C)[C@H]3C[C@H](O)[C@]12C,,"human, plasma",endogenous baseline diurnal,,Cmin,15.6 ± 3.2 nM
CCC(=O)N(CCC(c1ccc2c(c1)OCO2)c1ccccc1OC)Cc1ccccc1 (stereo not drawn),,"mouse, blood","i.p., 60 mg/kg twice daily, 2 weeks",,sodium,154 mEq/L
CC(C)(C(=O)N1CCOc2c(C#N)cncc2C1)C(F)F,,"human, both sexes","oral, 10 mg single dose",,subjects with cardiac disorder TEAE,16.7%
Cn1ncnc1[C@H]1c2n[nH]c(=O)c3cc(F)cc(c23)N[C@@H]1c1ccc(F)cc1,,"human patients, plasma","oral, 600 µg/m2 twice daily day 1, day 5, dose level DL4, median, with: temozolomide 30 mg/m2 daily days 2-6",,AUCτ,175 ng·h/mL
O=C(O)CCC(=O)O.[2H]C([2H])([2H])Oc1cc(C)c2[nH]ccc2c1CN1CC[C@@H](C2CC2)C[C@H]1c1ccc(C(=O)O)cc1,multiple ascending dose,healthy Chinese subjects,50 mg twice daily,,subjects with allergic dermatitis TEAE,0%
CN(CCCN1CCN(C(=O)CN2CCN(CC(=O)[O-])CCN(CC(=O)[O-])CCN(CC(=O)[O-])CC2)CC1)c1ccc2nccc(C(=O)NCC(=O)N3CC(F)(F)C[C@H]3C#N)c2c1.[68Ga+3],,"mice, HT-1080.hFAP and HT-1080 wild-type xenografts, kidney","iv, 500 pmol, 4 h post injection",,uptake,1.3 ± 0.2 %IA/g
Cc1cc(C)c(CNC(=O)c2cc(Cl)c3c(c2C)O[C@@](C)([C@H]2CC[C@H](N(C)C)CC2)O3)c(=O)[nH]1,,"human, plasma","oral, 200 mg, cycle 1 day 1",,Tmax unbound drug,2 h
COc1ccc([C@@H]2COC[C@H](c3ccc(-c4ccccc4)cc3)N2)cc1,"shake-flask, LC-HRMS",aqueous buffer,"16 h, pH 6.8",,solubility,< 4 µM
C=CC(=O)Nc1cc(Nc2nccc(-c3cn(C)c4ccccc34)n2)c(OC)cc1N(C)CCN(C)C,,human plasma,"72 h, storage stability, LLOQ sample",,recovery,50.1%
Cl.[2H]C([2H])([2H])CC(=O)c1cnc(NC(=O)C2CC2)cc1Nc1cccc(-c2ncn(C([2H])([2H])[2H])n2)c1OC,geometric mean,human,"oral, 40 mg twice daily, day 7, fed, liquid, multiple dose",,AUC(0-inf),6040 ng·h/mL
O=c1[nH]c(=O)n([C@H]2C[C@H](O)[C@@H](CO)O2)cc1CCC[18F],,"male CD-1 nu/nu mice, RG2 tumour, spleen","intravenous, dose not given, 2 h",,biodistribution,0.31 ± 0.11 %ID/g
CCOC(=O)C1=C(CN2CCC[C@@H]2C(=O)Nc2ccc(B(O)O)cc2)NC(c2nccs2)=N[C@H]1c1ccc(F)cc1Br,,"ICR mouse, plasma","intravenous, 2 mg/kg",,AUC(0-t),720 ± 105 ng·h/mL
[18F]c1ccc(-c2ccc3c(c2)[nH]c2ccncc23)cn1,ex vivo biodistribution,"APP/PS1 mouse, AD model, cerebellum","intravenous, 30 min",,SUV,0.471 ± 0.365
Cc1c(-c2ccc(N3CCc4cccc(C(=O)Nc5nc6ccccc6s5)c4C3)nc2C(=O)O)cnn1CC12CC3(C)CC(C)(C1)CC(OCCNCC[C@H](O)CO)(C3)C2,,"beagle dog, male, anaesthetised","intravenous infusion, 0.3 mg/kg/min, 75 min",reference: vehicle,QRS duration change,0 ms
O=c1[nH]c(=O)n([C@@H]2O[C@H](CO)[C@@H](O)[C@@H]2F)cc1CCC[18F],,"nude mice, RG2 tumour, spleen","intravenous, dose not given, 2 h",,biodistribution,0.16 ± 0.09 %ID/g
Cc1cc([C@H]2C[C@H]3[C@@H](CF)SC(N)=N[C@@]3(c3ccc(F)cc3F)CO2)on1,,"129/SVE wild-type mouse, male","subcutaneous, 30 mg/kg, 7 h",,CSF concentration,6 nM
Cc1c(C(=O)O)ccc2c3n(nc12)[C@@H]1[C@H](C3)N(CC2CC2)[C@@]2(C(=O)Nc3cc(Cl)ccc32)[C@H]1c1cccc(Cl)c1F,"phase Ia trial, refers to: Neutropenia",cancer patients,"oral, dose not given, all patients all grades",,adverse event incidence,31.5%
CNC(=O)c1ccc(-c2cnc3ncc(Cc4ccc5ncccc5c4)n3n2)cc1F,"refers to: Cough, all grades",cancer patients,"oral, 600 mg twice daily, expansion cohort, any causality",,patients with adverse event,5%
OC[C@H]1O[C@@H](c2ccc(F)c(Cc3cc4ccccc4s3)c2)[C@H](O)[C@@H](O)[C@@H]1O,,"Japanese patients, type 1 diabetes","oral, 100 mg/day, onset day 9",reference: patients,hypoglycaemia-related adverse event,2%
CC[C@H]1CC[C@H](c2ccc(-c3ccc(F)c(F)c3)cc2)CC1,,"rat, placenta","1000 ng/mL in perfusate, middle dose, mixture of 21 LCMs",,placental accumulation,12.1 ± 13.4 ng/g
CCc1cc(C(=O)NC)c2nccc(N3CCc4c(cc(Cn5ccnc5)cc4-c4cn(C)nc4C(F)(F)F)C3=O)c2c1,,Sprague Dawley rats,"oral, 100 mg/kg once daily, 7 days",,red cell distribution width,12.9 ± 0.77%
N[C@@H](C[18F])C(=O)O,PET imaging,"female athymic nude mice, U-87 MG xenograft, tumor","intravenous, 15 min",,tracer uptake,2.17 ± 0.62 %ID/cc
N#Cc1ccc2c(c1)[C@H]1CCCN(C(=O)c3ccc4[nH]cnc4c3)[C@H]1C2,,"human, female","10 mg, day 15",,DHEA-S level,3.4 µmol/L
Cc1c([C@H]2COC[C@@H](c3cc(Cl)cc(Cl)c3)N2)cnn1-c1ccccc1,"shake-flask, LC-HRMS",aqueous buffer,"16 h, pH 6.8",,solubility,< 4 µM
COc1cc2c(cc1OC)C(=O)C(CC1CCN(Cc3ccccc3)CC1)C2 (stereo not drawn),spirometry,human subjects,dose not given,reference: placebo,FEV1/FVC,0.492%
O=C(Nc1ccc(OC(F)(F)Cl)cc1)c1cnc(N2CC[C@@H](O)C2)c(-c2ccn[nH]2)c1,"refers to: ALT increase, grade ≥2","human patients, dose-finding study","oral, sample A of sample B patients",,patients with event,7.1%
O=C(Nc1nc2cccc(-c3ccc(CN4CCS(=O)(=O)CC4)cc3)n2n1)C1CC1,refers to: any adverse event,human rheumatoid arthritis patients,"oral, 30 mg once daily, 4 weeks, regardless of relatedness",,treatment-emergent adverse events,41.2%
C[C@@]1(C2CCCCC2)COC[C@@H](c2ccc(F)cc2Cl)N1,"shake-flask, LC-HRMS",aqueous buffer,"16 h, pH 6.8",,solubility,< 4 µM
COc1ccc2c(c1)CN(C(=O)CCN1CCC(Cc3ccccc3)CC1)CC[S@@+]2[O-],telemetry,conscious male beagle dogs,"intravenous, 2 mg/kg, 0.5 h",,QRS duration,32 ± 9 ms
O=C(COc1ccc(Cl)cc1)NC12CC(c3nnc([C@H]4C[C@@H](OC(F)(F)F)C4)o3)(C1)C2,refers to: Presyncope,human,28 (unit not given),,adverse event incidence,10.5%
COc1cc2nccc(Oc3ccc(NC(=O)c4cc5c(n(-c6ccccc6)c4=O)CCCC5=O)nc3)c2cc1OC,,patients with relapsed/refractory AML,"oral, 6 mg once daily",,drug-related TEAEs leading to discontinuation,0%
CCN1CCN(Cc2ccc(NC(=O)c3ccc(C)c(NC(=O)c4cncc(-c5cccs5)c4)c3)cc2C(F)(F)F)CC1,,"C57BL/6 mice, epithelial lining fluid","intraperitoneal, 20 mg/kg",,apparent volume of distribution,8.26 L/kg
CC1(C)OC[C@H](c2ccc3ccccc3c2)N[C@@H]1c1ccccc1,"shake-flask, LC-HRMS",aqueous buffer,"16 h, pH 6.8",,solubility,< 4 µM
COc1ccc([C@@H](O)c2cc(-c3ncnc4cc(N5CCOCC5)ccc34)c(F)cc2Cl)nn1,,locally advanced rectal cancer,"all dose levels overall, with: capecitabine and radiotherapy",,"TEAE, radiation skin injury",32%

# Excerpt of the above:
SMILES,test,system,conditions,scale,measurement,value
Cc1ccc([C@@H]2O[C@H](CO)[C@@H](O)[C@H](O)[C@H]2O)cc1Cc1ccc(-c2ccc(F)cc2)s1,,Japanese type 2 diabetes patients,"400 mg, day 4, 24 h urine collection",reference: baseline,urinary chloride excretion change,-21.8 mEq
Cc1cc(C)c(CNC(=O)c2cc(Cl)c3c(c2C)O[C@@](C)([C@H]2CC[C@H](N(C)C)CC2)O3)c(=O)[nH]1,,"human, plasma","oral, 200 mg, cycle 1 day 1",,Tmax unbound drug,2 h
O=c1[nH]c(=O)n([C@H]2C[C@H](O)[C@@H](CO)O2)cc1CCC[18F],,"male CD-1 nu/nu mice, RG2 tumour, spleen","intravenous, dose not given, 2 h",,biodistribution,0.31 ± 0.11 %ID/g
CC=CC1CCC(C2CCC(CCC)CC2)CC1 (stereo not drawn),,"rat, placenta","5000 ng/mL in perfusate, high dose, mixture of 21 LCMs",,placental accumulation,353 ± 585 ng/g
CN[C@@H](C)C(=O)N[C@H]1CN(C(=O)CC(C)C)CC[C@H]2CC[C@@H](C(=O)NC(c3ccccc3)c3ccccc3)N2C1=O,unchanged drug recovered,"SCID mice, MDA-MB-231 xenograft, urine",oral,,renal clearance,0.128 mL/min
O=C(COc1ccc(Cl)cc1)NC12CC(c3nnc([C@H]4C[C@@H](OC(F)(F)F)C4)o3)(C1)C2,refers to: Presyncope,human,28 (unit not given),,adverse event incidence,10.5%
OC[C@H]1O[C@@H](c2ccc(F)c(Cc3cc4ccccc4s3)c2)[C@H](O)[C@@H](O)[C@@H]1O,,"Japanese patients, type 1 diabetes","oral, 100 mg/day, onset day 9",reference: patients,hypoglycaemia-related adverse event,2%
CC(=O)N(C)[C@H]1CCN(C(=O)c2cnc3c(c2)C[C@](C)(c2ccc(F)cc2)N3)C1,,"male humans, plasma","oral, 60 mg once daily, geometric mean",,"linearity index (AUCt,ss/AUC0-inf)",1.01
C=CC(=O)Nc1cc(Nc2nccc(-c3cn(C)c4ccccc34)n2)c(OC)cc1N(C)CCN(C)C,,human plasma,"72 h, storage stability, LLOQ sample",,recovery,50.1%
